Assay results from different studies.
Protocols differ between the studies behind these lines. Several values in a cell are separate wells, animals, samples, runs or records.
Target: Calcium/calmodulin-dependent protein kinase type 1D (CAMK1D, Homo sapiens, UniProt Q8IU85)

| Structure (SMILES) | assay | system | conditions | how to read | endpoint | result |
| --- | --- | --- | --- | --- | --- | --- |
| C=CC(=O)N1CCCC(n2c(=O)c3ncccc3n(Cc3ccc(Oc4ccccc4)cc3)c2=O)C1 (stereo not shown) | thermal proteome profiling | cell proteome | treated |  | melting temperature | 52 °C and 41.9 °C |
| Cc1cnc2nc1Nc1cccc(c1)COC/C=C/COCc1cc(ccc1OCCN1CCOCC1)N2 | binding |  | 0.1 µM |  | remaining binding | 85% |
| CNC(=O)C1CCN(c2cc(C)c(F)cc2NC(=O)c2ccc(-c3cc(O)ccc3C)c(C)c2)CC1 | binding, competition with immobilised ligand |  | 1 µM |  | remaining binding | 100% |
| C=CC(=O)Nc1cccc(-c2cnc3[nH]cc(C(=O)NC(C)(C)C)c3n2)c1 | enzyme activity, inhibitor |  | 0.1 µM |  | inhibition | 13% |
| Cc1cccc(O[C@H]2CCC[C@@H](C(C)CNCc3ccncc3)C2)c1 (relative stereo) | enzyme activity, inhibitor |  | 1 µM |  | inhibition | 2% |
| O=C(Cc1ccc(OCc2ccccc2)cc1)NC1(C(=O)O)CCN(C(=O)c2ccc(-c3cccc(Cl)c3)cc2)CC1 | enzyme activity, inhibitor |  | 10 µM |  | activity vs control | 106% |
| COc1cc(Nc2nccc(-c3cnn4nc(OC)ccc34)n2)cc(C(F)(F)F)c1 | binding, competition with immobilised ligand |  | 1 µM |  | remaining binding | 100% |
| COCC12C(=O)NC3C4(C(OC)CC1O)C1CC5(O)C(OC)C(O)C(OC(C)=O)(C1C5OC(=O)c1ccccc1)C3(O)C(OC)C24 (stereo not shown) | kinase activity, inhibitor, ProQinase kinase profiling |  | 25 µM | baseline: control | remaining activity | 104% and 108% |
| CCn1cc(C(=O)O)c(=O)c2c(N)c(F)c(NC3CCCCC3)cc21 | kinase activity |  | 0.1 µM, with: ATP at Km |  | inhibition | 2.5% |
| CS(=O)(=O)Nc1cccc(-c2csc3cnc(Nc4ccc(N5CCN(CCCCCOc6cccc7c6C(=O)N(C6CCC(=O)NC6=O)C7=O)CC5)cc4)nc23)c1 (stereo not shown) | probe labelling, inhibitor, KiNativ chemoproteomics | MOLT-4 | 1 µM |  | inhibition | -5.53% |
| Cc1ccc(-c2c(/C=C(\C#N)C(=O)NC(C)C)n(CCCO)c3ncnc(N)c23)cc1 | cell-free assay, competition with immobilised ligand |  | 1 µM |  | remaining binding | 100% |
| CCN1CCN(Cc2ccc(C(=O)Nc3ccc(C)c(NCc4cnc5[nH]ccc5c4OC)c3)cc2C(F)(F)F)CC1 | binding, competition with immobilised ligand |  | 1 µM |  | remaining binding | 94% |
| O=C=[N][Ru-4]123([n]4c5ccc(O)cc5c5c6c(c7cc(F)c[n+]1c7c54)C(=O)NC6=O)[S+]1CC[S+]2CC[S+]3CC1 (stereo not shown) | enzyme activity |  | 100 nM, human enzyme, with: 10 µM ATP | baseline: untreated | remaining activity | 49% |
| Nc1ncc(-c2cc(-c3cnn(CC(F)(F)F)c3)ncc2F)nc1C(=O)NC1CNCC(F)C1 (stereo not shown) | enzyme activity |  | 1 µM | baseline: DMSO control | remaining activity | 97.6% |
| C=CC(=O)N1Cc2nc(-c3cc(-c4cc(Cl)cnc4Cl)c(F)cc3F)n(-c3ccncn3)c2C1 | cell-free assay, inhibitor |  | 1 µM |  | inhibition | -3.3% |
| NC(=O)[C@@H](O)C[C@H]1CCc2sc3ncnc(O[C@H]4CC[C@H](N5CCOCC5)CC4)c3c21 | enzyme activity, inhibitor |  | 10 µM |  | inhibition | 12% |

Excerpt of the above:
| Structure (SMILES) | assay | system | conditions | how to read | endpoint | result |
| --- | --- | --- | --- | --- | --- | --- |
| C=CC(=O)Nc1cccc(-c2cnc3[nH]cc(C(=O)NC(C)(C)C)c3n2)c1 | enzyme activity, inhibitor |  | 0.1 µM |  | inhibition | 13% |
| CS(=O)(=O)Nc1cccc(-c2csc3cnc(Nc4ccc(N5CCN(CCCCCOc6cccc7c6C(=O)N(C6CCC(=O)NC6=O)C7=O)CC5)cc4)nc23)c1 (stereo not shown) | probe labelling, inhibitor, KiNativ chemoproteomics | MOLT-4 | 1 µM |  | inhibition | -5.53% |
| NC(=O)[C@@H](O)C[C@H]1CCc2sc3ncnc(O[C@H]4CC[C@H](N5CCOCC5)CC4)c3c21 | enzyme activity, inhibitor |  | 10 µM |  | inhibition | 12% |
